Measurements pooled from the literature.
Values joined by “and” are separate records of one study, mostly repeats; a detail may differ.
Target: Tyrosine-protein kinase FRK (FRK, Homo sapiens, UniProt P42685)
Chain of UniProt P42685 (whole entry, looked up): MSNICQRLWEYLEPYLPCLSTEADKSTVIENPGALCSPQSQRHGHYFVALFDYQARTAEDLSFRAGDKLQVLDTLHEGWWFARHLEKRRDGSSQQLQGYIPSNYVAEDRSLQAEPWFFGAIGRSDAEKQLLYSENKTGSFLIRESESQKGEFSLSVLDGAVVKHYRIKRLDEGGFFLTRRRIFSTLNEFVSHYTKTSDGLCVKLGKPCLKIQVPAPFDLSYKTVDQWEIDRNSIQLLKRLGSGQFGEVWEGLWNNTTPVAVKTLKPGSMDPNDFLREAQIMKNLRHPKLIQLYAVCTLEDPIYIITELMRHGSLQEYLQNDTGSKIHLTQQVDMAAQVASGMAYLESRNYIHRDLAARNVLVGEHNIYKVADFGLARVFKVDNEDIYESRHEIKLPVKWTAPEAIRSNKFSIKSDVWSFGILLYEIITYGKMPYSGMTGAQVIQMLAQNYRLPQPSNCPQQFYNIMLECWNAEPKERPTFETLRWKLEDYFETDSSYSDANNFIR

CC(C)=CC1OC(C)(C)C2C=C3C(=O)C(Cl)=CC(O)C3C3C(O)C4OC4C(=O)C132 (centres unmarked) gave a remaining binding of 94% (cell-free assay, competition with immobilised ligand; 10 µM).
CN1CCN(Cc2ccc(-c3ccc(CO[C@H]4CCC[C@@H]4NC(=O)c4cc(-c5cnn(C)c5)cnc4N)cc3)cc2)CC1 has an inhibition of 8% (enzyme activity, inhibitor; 0.1 µM).
For Cc1cccc(O[C@H]2CCC[C@@H](C(C)CNCc3ccncc3)C2)c1 (relative stereo), the inhibition was 1% (cell-free assay, inhibitor; 1 µM).
C=CC(=O)Nc1cccc(-c2cnc3[nH]cc(C(=O)NC(C)(C)C)c3n2)c1 has an inhibition of 10% (enzyme activity, inhibitor; 0.1 µM).
O=C(Nc1ccc(Oc2ncnc3[nH]cc(-c4ccccc4)c23)c(F)c1)c1c2n(n(-c3cc(F)ccc3F)c1=O)CCCC2 gave an inhibition of 70% (enzyme activity, inhibitor; 0.5 µM).
Under “activity vs control”, O=C(Cc1ccc(OCc2ccccc2)cc1)NC1(C(=O)O)CCN(C(=O)c2ccc(-c3cccc(Cl)c3)cc2)CC1 is recorded as 97% (enzyme activity, inhibitor; 10 µM).
With O=C=[N][Ru-4]123([n]4c5ccc(O)cc5c5c6c(c7cc(F)c[n+]1c7c54)C(=O)NC6=O)[S+]1CC[S+]2CC[S+]3CC1 (centres unmarked) the remaining activity was 73% (enzyme activity; 100 nM, human enzyme, added: 10 µM ATP; baseline: untreated).
With CCN1CCN(Cc2ccc(NC(=O)c3ccc(C)c(NC(=O)c4cncc(-c5cccs5)c4)c3)cc2C(F)(F)F)CC1 the remaining binding was 1.3% (binding, competition with immobilised ligand; 1 µM).
COc1c(OCCCN2CCOCC2)ccc2c1N=C(NC(=O)c1cnc(N)nc1)N1CCN=C21 has a remaining activity of 106% (kinase activity, inhibitor; 1 µM; baseline: untreated control).
For NC(=O)[C@@H](O)C[C@H]1CCc2sc3ncnc(O[C@H]4CC[C@H](N5CCOCC5)CC4)c3c21, the inhibition was 56% (enzyme activity, inhibitor, radiometric; 10 µM).
For CNC(=O)C1CCN(c2cc(C)c(F)cc2NC(=O)c2ccc(-c3cc(O)ccc3C)c(C)c2)CC1, the remaining binding was 5.9% (binding, competition with immobilised ligand; 1 µM).
The remaining activity of COCC12C(=O)NC3C4(C(OC)CC1O)C1CC5(O)C(OC)C(O)C(OC(C)=O)(C1C5OC(=O)c1ccccc1)C3(O)C(OC)C24 (centres unmarked) is reported as 98% and 93% (kinase activity, inhibitor, ProQinase kinase profiling; 25 µM; baseline: control).
COc1ccc(NC(=O)Nc2ccc3c(c2)C(=O)N(C(C)CO)CC(C)C(CN(C)Cc2ccc4c(c2)OCO4)O3)cc1 (centres unmarked) has a remaining activity of 88% (kinase activity, KinaseProfiler; 0.03 µM, species human; baseline: control).
Under “activity vs control”, CNC(=O)C[C@H](Cc1ccc(C#N)cc1)NC(=O)c1cc(-c2ccc(CN[C@H](C)c3ccc(C)cc3)o2)ccc1Cl is recorded as 93% (enzyme activity, inhibitor; 1 µM).
With C=CC(=O)N1CCCC(n2c(=O)c3ncccc3n(Cc3ccc(Oc4ccccc4)cc3)c2=O)C1 (centres unmarked) the remaining binding was 91% (cell-free assay, competition with immobilised ligand; 1 µM).
CCn1cc(C(=O)O)c(=O)c2c(N)c(F)c(NC3CCCCC3)cc21 gave an inhibition of 2% (kinase activity; 0.1 µM, added: ATP at Km).
For COc1cc(Nc2nccc(-c3cnn4nc(OC)ccc34)n2)cc(C(F)(F)F)c1, the remaining binding was 95% (binding, competition with immobilised ligand; 1 µM).

Repeated from above:
Under “activity vs control”, O=C(Cc1ccc(OCc2ccccc2)cc1)NC1(C(=O)O)CCN(C(=O)c2ccc(-c3cccc(Cl)c3)cc2)CC1 is recorded as 97% (enzyme activity, inhibitor; 10 µM).
With O=C=[N][Ru-4]123([n]4c5ccc(O)cc5c5c6c(c7cc(F)c[n+]1c7c54)C(=O)NC6=O)[S+]1CC[S+]2CC[S+]3CC1 (centres unmarked) the remaining activity was 73% (enzyme activity; 100 nM, human enzyme, added: 10 µM ATP; baseline: untreated).
